Measurements gathered from unrelated publications.
A part holds a random share of what one study measured. Substitutions count along the parent as printed.
Sequence of UniProt O15294 (whole entry, looked up): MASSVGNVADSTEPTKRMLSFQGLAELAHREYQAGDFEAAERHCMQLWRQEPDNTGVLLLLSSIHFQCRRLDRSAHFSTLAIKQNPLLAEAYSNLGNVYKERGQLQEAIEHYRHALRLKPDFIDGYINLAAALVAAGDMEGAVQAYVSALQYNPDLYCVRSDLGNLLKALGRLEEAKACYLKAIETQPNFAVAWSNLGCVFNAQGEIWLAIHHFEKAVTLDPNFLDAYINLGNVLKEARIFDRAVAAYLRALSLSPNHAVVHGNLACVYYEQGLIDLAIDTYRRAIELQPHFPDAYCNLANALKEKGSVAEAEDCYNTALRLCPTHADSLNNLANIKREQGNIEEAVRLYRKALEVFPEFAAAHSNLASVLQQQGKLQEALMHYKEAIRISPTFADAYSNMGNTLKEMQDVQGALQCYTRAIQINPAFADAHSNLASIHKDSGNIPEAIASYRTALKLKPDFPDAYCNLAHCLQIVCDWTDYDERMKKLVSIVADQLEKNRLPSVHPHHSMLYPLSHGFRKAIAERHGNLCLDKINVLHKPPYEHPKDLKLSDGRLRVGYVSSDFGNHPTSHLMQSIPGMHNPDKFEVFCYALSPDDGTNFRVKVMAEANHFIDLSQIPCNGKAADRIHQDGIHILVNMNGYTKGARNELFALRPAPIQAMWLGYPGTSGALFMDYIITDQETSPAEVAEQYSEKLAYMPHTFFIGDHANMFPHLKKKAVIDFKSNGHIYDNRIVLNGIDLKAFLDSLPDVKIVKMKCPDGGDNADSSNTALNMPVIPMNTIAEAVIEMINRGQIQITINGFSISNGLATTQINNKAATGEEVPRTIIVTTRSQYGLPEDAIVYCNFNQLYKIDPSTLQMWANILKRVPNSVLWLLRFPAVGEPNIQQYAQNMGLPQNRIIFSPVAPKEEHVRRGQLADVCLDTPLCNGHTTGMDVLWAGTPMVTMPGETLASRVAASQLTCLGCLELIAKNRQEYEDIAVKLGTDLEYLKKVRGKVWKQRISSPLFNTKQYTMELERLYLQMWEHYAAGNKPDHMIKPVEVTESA

Block 1
Target: CRIPT, C-terminal peptide
Technique: DHFR complementation, deep sequencing
Matrix: yeast
Notes: single substitutions, model-inferred values
Relative to: wild type
Direction: higher = weaker binding
Parent: ERBIN, PDZ domain 1 (human); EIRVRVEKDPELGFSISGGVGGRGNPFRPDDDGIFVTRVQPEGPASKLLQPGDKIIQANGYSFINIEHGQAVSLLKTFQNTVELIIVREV; partner TKNYKQTSV
| Substitution | binding free energy change [kJ/mol] |
| --- | --- |
| Q40D | 1.68 |
| N80W | 0.964 |
| E42T | 0.0216 |
| G43T | 3.56 |
| L48P | 2.7 |
| G43Y | 3.99 |
| G69C | 0.242 |
| P10S | -2.07 |

Block 2
Target: TAR DNA-binding protein 43, full length, His tag (TARDBP, Homo sapiens, UniProt Q13148, residues 1-414)
Technique: RNA Bind-n-Seq
Form: RNA
Matrix: in vitro
Tested at: 20 nM
Notes: 6-mer, flanks averaged, single round
With: 150 mM KCl
Relative to: input library
Direction: higher = stronger binding
| Strand | 6-mer enrichment (R) |
| --- | --- |
| CCGGGU | 1.69 |
| GUGCCU | 0.846 |
| UUCAUG | 0.624 |
| UAGUAC | 0.618 |
| GGAGGU | 3.41 |
| ACGCUU | 0.601 |
| GAGUGU | 1.63 |
| ACACUG | 0.695 |

Block 3
Target: Prothrombin, mature alpha-thrombin (F2, Homo sapiens, UniProt P00734)
Technique: aptamer microarray, sandwich
Form: DNA with 2'F-ANA
Matrix: in vitro
Tested at: 200 nM
Notes: whole 15-mer aptamer, many near background
With: Cy3 exosite-II aptamer, 400 nM
Direction: higher = stronger binding
Strand: GGTTGGTGTGGTTGG
| Modification | mean fluorescence intensity [a.u.] |
| --- | --- |
| 2'F-ANA at 5 7 11 14 | 50.3 |
| 2'F-ANA at 2 3 6 7 8 10 11 13 15 | 284 |
| 2'F-ANA at 1 3 4 6 9 10 11 13 | 61.8 |
| 2'F-ANA at 1 2 3 8 9 12 13 14 | 89.7 |
| 2'F-ANA at 2 4 6 8 9 14 15 | 85.7 |
| 2'F-ANA at 1 2 3 7 11 13 14 15 | 71.9 |
| 2'F-ANA at 1 7 8 9 10 11 12 13 15 | 66.7 |
| 2'F-ANA at 1 4 5 7 11 13 14 | 45.9 |

Mixed results
| Molecule | target | effect on | technique | form | relative to | measurement | result |
| --- | --- | --- | --- | --- | --- | --- | --- |
| TPFLPMYQIPMDVHN | UDP-N-acetylglucosamine--peptide N-acetylglucosaminyltransferase 110 kDa subunit (OGT, Homo sapiens, UniProt O15294) | phage display binding | phage display panning NGS | peptide | OGT-panned over input library | log2 fold enrichment | 3.99 |

For quick reference, copied from above (block 2):
| Strand | 6-mer enrichment (R) |
| --- | --- |
| UAGUAC | 0.618 |
| GGAGGU | 3.41 |
| ACGCUU | 0.601 |
| GAGUGU | 1.63 |
